Published values pooled from the literature.
Lines come from different studies, so protocols differ. ± marks the error that the study gave.

Cn1cc(-c2ccc3ccccc3c2)c2ccc(Cl)nc21  IC50 (Human immunodeficiency virus 1; cell growth or viability, MTT; TZM-bl; 48 h): 170 µM
C#CCN1CCc2c(n(C(=C)C(=O)OC)c3ccccc23)C(C(=O)OC)C1 (stereo not drawn)  IC50 (Hepatitis B virus; viral replication, inhibitor, ELISA; HePAD38): 1.34 µM
COC(=O)C1=CO[C@@H](C)[C@@H]2Cn3ccc4c5ccccc5nc-4c3C[C@H]12  IC50 (Plasmodium falciparum; [3H]hypoxanthine incorporation; 3D7; 48 h): 40.6 ± 16.2 µM
O=[N+]([O-])c1ccc(/C=N/N=C/c2ccc(F)cc2)o1  IC50 (Trypanosoma brucei gambiense; parasite growth, CellTiter-Glo; IL1922 bloodstream form; 72 h): 2.48 ± 0.67 µM
CCOC(=O)C(NC(=O)CN1C(=O)/C(=C/c2ccc3c(c2)OCO3)SC1=S)C(C)C (stereo not drawn)  IC50 (Trypanosoma brucei gambiense; cell viability; IL1922; 72 h): > 69 µM
O=[N+]([O-])c1ccc(/C=N/N=C/c2ccc(O)cc2)o1  IC50 (Trypanosoma evansi; parasite growth, CellTiter-Glo; Tansui bloodstream form; 72 h): 6.83 ± 2.66 µM
N[C@H]1C[C@@H]1c1ccc(-c2cccc(O)c2)cc1  IC50 (herpes simplex virus 1; viral IE gene expression, qRT-PCR; HFF; 4 h pretreatment, infection 2 h): ~3 µM
O=C(Nc1cccc(C(=O)Nc2ccc(S(=O)(=O)O)c3cc(S(=O)(=O)O)cc(S(=O)(=O)O)c23)c1)Nc1cccc(C(=O)Nc2ccc(S(=O)(=O)O)c3cc(S(=O)(=O)O)cc(S(=O)(=O)O)c23)c1  IC50 (Hepatitis C virus; viral replication, inhibitor, luciferase; Huh7.5; 72 h, replicon): > 25 µM
Nc1nc(-c2ccccc2)nc2[nH]nc(Nc3ccc(F)cc3)c12  IC50 (coxsackievirus B3; plaque formation, plaque reduction; HeLa, Nancy wild type): 0.25 ± 0.06 µM
C#CCN1CCc2c3n(c4ccccc24)C(=O)C(=C)C3(C(=O)OC)C1 (stereo not drawn)  IC50 (Hepatitis B virus; viral replication, inhibitor, ELISA; HePAD38): 2.48 µM
CCOC(=O)CNC(=O)CN1C(=O)S/C(=C\c2ccc(OC)c(O)c2)C1=O  IC50 (Trypanosoma brucei gambiense; cell viability; IL1922; 72 h): > 64 µM
CCN(CC)CC#CCNc1ccnc2cc(Cl)ccc12  IC50 (Plasmodium falciparum; schizont maturation; field isolates; 20% human serum): 0.327 µM
COc1ccc(/C=N/N=C/c2ccc([N+](=O)[O-])o2)cc1  IC50 (Trypanosoma brucei gambiense; parasite growth, CellTiter-Glo; IL1922 bloodstream form; 72 h): 3.43 ± 1.2 µM
CCOC(=O)C(CC)NC(=O)CN1C(=O)S/C(=C\c2ccc([N+](=O)[O-])cc2)C1=O (stereo not drawn)  IC50 (Trypanosoma brucei gambiense; cell viability; IL1922; 72 h): > 66 µM
C#CCN1CCc2c3n(c4ccccc24)C(=O)C(=C)CC3(C(=O)OC)C1 (stereo not drawn)  IC50 (Hepatitis B virus; viral replication, inhibitor, ELISA; HePAD38): 1.99 µM
COc1ccc(/C=N/N=C/c2ccc([N+](=O)[O-])s2)cc1  IC50 (Trypanosoma evansi; parasite growth, CellTiter-Glo; Tansui bloodstream form; 72 h): 2.65 ± 0.42 µM
CCC(NC(=O)CN1C(=O)N/C(=C\c2ccc(C)cc2)C1=O)C(=O)OC (stereo not drawn)  IC50 (Trypanosoma brucei gambiense; cell viability; IL1922; 72 h): > 64 µM
O=[N+]([O-])c1ccc(/C=N/N=C/c2ccc(Br)cc2)s1  IC50 (Trypanosoma evansi; parasite growth, CellTiter-Glo; Tansui bloodstream form; 72 h): 1.83 ± 0.54 µM
CCOC(=O)C(NC(=O)CN1C(=O)N/C(=C\c2ccc3c(c2)OCO3)C1=O)C(C)C (stereo not drawn)  IC50 (Trypanosoma brucei gambiense; cell viability; IL1922; 72 h): > 66 µM
O=C(O)[C@H](Cc1ccc2ccccc2c1)NC(=O)C1(c2ccc3ccccc3c2)CCN(S(=O)(=O)c2ccc([N+](=O)[O-])cc2)CC1  IC50 (Human immunodeficiency virus 1; viral replication, inhibitor): 17 µM
O=[N+]([O-])c1ccc(/C=N/N=C/c2ccc(OCc3ccccc3)cc2)s1  IC50 (Trypanosoma evansi; parasite growth, CellTiter-Glo; Tansui bloodstream form; 72 h): 12.3 ± 2.96 µM

Excerpt of the above:
N[C@H]1C[C@@H]1c1ccc(-c2cccc(O)c2)cc1  IC50 (herpes simplex virus 1; viral IE gene expression, qRT-PCR; HFF; 4 h pretreatment, infection 2 h): ~3 µM
O=C(Nc1cccc(C(=O)Nc2ccc(S(=O)(=O)O)c3cc(S(=O)(=O)O)cc(S(=O)(=O)O)c23)c1)Nc1cccc(C(=O)Nc2ccc(S(=O)(=O)O)c3cc(S(=O)(=O)O)cc(S(=O)(=O)O)c23)c1  IC50 (Hepatitis C virus; viral replication, inhibitor, luciferase; Huh7.5; 72 h, replicon): > 25 µM
Nc1nc(-c2ccccc2)nc2[nH]nc(Nc3ccc(F)cc3)c12  IC50 (coxsackievirus B3; plaque formation, plaque reduction; HeLa, Nancy wild type): 0.25 ± 0.06 µM
